Experimental data of several laboratories.
Each line is one published result; not all experiments were run side by side. “And” joins repeats or separate records; there may be more than shown. Numbers after ± are the reported error. ≈ marks a conversion by molar mass, not a printed value.
Organism: Acinetobacter baumannii

Structure (SMILES) = C[C@@H](O)[C@H]1C(=O)N2C(C(=O)[O-])=C(SC3Cn4cnc[n+]4C3)[C@H](C)[C@H]12 (some centres unmarked); test = checkerboard; test system = carbapenem-resistant; setting = concentration not given, with: anionic gold nanoparticle 8 µg/mL; how to read = reference: MIC alone over combination; quantity = MIC fold reduction; result = 8 fold
Structure (SMILES) = C[C@@H](N)[C@H](O)CCCCCCCC(=O)CCCCCCCCCCCCCC[C@@H](O[C@@H]1O[C@H](CO)[C@H](O)[C@H](O)[C@H]1O)[C@@H](C)N; test = resazurin; test system = ATCC 19606; setting = 50 µM; quantity = growth inhibition; result = 99 ± 0.01%
Structure (SMILES) = CNC(C)C1CCC(N)C(OC2C(N)CC(N)C(OC3OCC(C)(O)C(NC)C3O)C2O)O1 (centres unmarked); test system = 19606, biofilm; setting = 100 µg/mL, with: HNP1 8 µM; quantity = survival; result = 4.25% and 5.1% and 3.4%
Structure (SMILES) = N=C(N)NCCC[C@H](NC(=O)[C@@H](N)CCCNC(=N)N)C(=O)N[C@@H](Cc1c[nH]c2ccccc12)C(=O)N[C@@H](Cc1c[nH]c2ccccc12)C(=O)N[C@@H](Cc1ccccc1)C(=O)N[C@@H](CCC(N)=O)C(=O)N[C@@H](Cc1ccccc1)C(=O)N[C@@H](CCC(N)=O)C(=O)N[C@@H](Cc1ccccc1)C(=O)N[C@@H](CCCCN)C(N)=O; quantity = MBC; result = 1130 µM (≈ 1730 µg/mL)
Structure (SMILES) = CC[C@H](C)[C@H](NC(=O)[C@H](C)NC(=O)[C@H](CCCNC(=N)N)NC(=O)[C@H](CCCNC(=N)N)NC(=O)[C@H](CCCNC(=N)N)NC(=O)[C@H](CCCNC(=N)N)NC(=O)[C@H](CCCNC(=N)N)NC(=O)[C@@H](N)CCCNC(=N)N)C(=O)N[C@@H](CO)C(=O)NCC(=O)N[C@@H](CO)C(=O)N[C@@H](CC(C)C)C(=O)N[C@H](C(=O)N[C@H](C(=O)N[C@@H](CC(C)C)C(=O)N[C@@H](Cc1ccccc1)C(=O)NCC(=O)N[C@@H](Cc1ccc(O)cc1)C(N)=O)[C@@H](C)O)C(C)C; test = broth microdilution; test system = ATCC 17978; setting = highest value reported; quantity = MIC; result = 2 µM (≈ 4.33 µg/mL)
Structure (SMILES) = CC[C@H](C)[C@H](NC(=O)CNC(=O)[C@H](CC(=O)O)NC(=O)[C@H](CCCNC(=N)N)NC(=O)[C@@H](NC(=O)[C@H](CC(N)=O)NC(=O)[C@H](CCCNC(=N)N)NC(=O)CNC(=O)[C@@H](NC(=O)[C@H](CCCCN)NC(=O)[C@H](CCCNC(=N)N)NC(=O)[C@@H](NC(=O)[C@H](CCCCN)NC(=O)[C@H](CCCCN)NC(=O)[C@H](Cc1ccccc1)NC(=O)[C@@H](NC(=O)[C@H](CCCCN)NC(=O)[C@H](Cc1c[nH]c2ccccc12)NC(=O)[C@@H](N)CCCNC(=N)N)[C@@H](C)CC)[C@@H](C)CC)C(C)C)C(C)C)C(=O)N[C@H](C(=O)N[C@@H](CCCCN)C(=O)N[C@@H](C)C(=O)NCC(=O)N1CCC[C@H]1C(=O)N[C@@H](C)C(=O)N[C@H](C(=O)N[C@@H](C)C(=O)N[C@H](C(=O)N[C@H](C(=O)NCC(=O)N[C@@H](CCC(N)=O)C(=O)N[C@@H](C)C(=O)N[C@@H](C)C(=O)N[C@H](C(=O)N[C@H](C(=O)N[C@H](C(=O)N[C@@H](CCCCN)C(N)=O)C(C)C)C(C)C)[C@@H](C)O)C(C)C)C(C)C)C(C)C)[C@@H](C)CC; test system = KCCM 40203, Mueller-Hinton broth; setting = 16 h, 37 °C; how to read = growth inhibition over 99%; quantity = MIC; result = 2 µM (≈ 8.06 µg/mL)
Structure (SMILES) = N=C(N)NCCC[C@H](NC(=O)[C@H](Cc1c[nH]c2ccccc12)NC(=O)[C@@H](N)CCCNC(=N)N)C(=O)N[C@@H](Cc1c[nH]c2ccccc12)C(=O)N[C@@H](CCC(N)=O)C(=O)N[C@@H](Cc1ccccc1)C(=O)N[C@@H](CCC(N)=O)C(=O)N[C@@H](Cc1ccccc1)C(=O)N[C@@H](CCCCN)C(N)=O; test = broth microdilution, optical density; quantity = MIC; result = 39 µM (≈ 53.8 µg/mL)
Structure (SMILES) = NC[C@H]1O[C@H](O[C@H]2[C@H](O)[C@@H](O[C@H]3O[C@H](CO)[C@@H](O)[C@H](N)[C@H]3O)[C@H](N)C[C@@H]2N)[C@H](O)[C@@H](O)[C@@H]1O; test = colony counting; test system = 19606, biofilm; setting = 25 µg/mL, 12 h, without HNP1; quantity = survival; result = 2.2% and 3.46% and 1.93% and 2.25% and 2.83% and 2.56%
Structure (SMILES) = C[C@@H](O)[C@H]1C(=O)N2C(C(=O)O)=C([C@H]3CCCO3)S[C@H]12; test = checkerboard; test system = carbapenem-resistant; setting = concentration not given, with: anionic gold nanoparticle 8 µg/mL; how to read = reference: MIC alone over combination; quantity = MIC fold reduction; result = 16 fold
Structure (SMILES) = N=C(N)NCCC[C@H](NC(=O)[C@H](Cc1c[nH]c2ccccc12)NC(=O)[C@@H](N)CCCNC(=N)N)C(=O)N[C@@H](Cc1c[nH]c2ccccc12)C(=O)N[C@@H](Cc1ccccc1)C(=O)N[C@@H](CCC(N)=O)C(=O)N[C@@H](Cc1ccccc1)C(=O)N[C@@H](CCC(N)=O)C(=O)N[C@@H](Cc1ccccc1)C(=O)N[C@@H](CCCCN)C(N)=O; quantity = MBC; result = 570 µM (≈ 871 µg/mL)
Structure (SMILES) = O=C(O)CN(CC(=O)O)CC(=O)O; test system = NDM-2 producer; setting = 32 µg/mL, with: meropenem; quantity = meropenem MIC; result = 4 µg/mL
Structure (SMILES) = CC(=O)N[C@@H](CCCCN)C(=O)N[C@@H](CCCCN)C(=O)N[C@@H](C)C(=O)N[C@@H](CC(C)C)C(=O)N[C@@H](CCCCN)C(=O)N[C@@H](CC(C)C)C(=O)N[C@@H](CC(C)C)C(=O)N[C@@H](CCCCN)C(=O)N[C@@H](CCCCN)C(=O)N1CCC[C@H]1C(=O)N[C@@H](CC(C)C)C(=O)N[C@@H](CCCCN)C(=O)N[C@@H](CC(C)C)C(=O)N[C@@H](CC(C)C)C(=O)N[C@@H](CCCCN)C(N)=O; test = broth microdilution; test system = ATCC 17978; setting = 18 h, 37 °C, compound alone; quantity = MIC; result = > 80 µM
Structure (SMILES) = Cn1c(=O)ccc2ccc(F)c(CCNC[C@H]3CN(c4cnc5c(n4)NC(=O)CO5)C(=O)O3)c21; quantity = MIC90; result = 0.5 µg/mL (≈ 1.07 µM)
Structure (SMILES) = C[C@@H](O)[C@H]1C(=O)N2C(C(=O)O)=C(S[C@@H]3CN[C@H](C(=O)N(C)C)C3)[C@H](C)[C@H]12; test = checkerboard; test system = carbapenem-resistant; setting = concentration not given, with: anionic gold nanoparticle 8 µg/mL; how to read = reference: MIC alone over combination; quantity = MIC fold reduction; result = 8 fold
Structure (SMILES) = CC[C@H](C)[C@H](NC(=O)[C@H](C)NC(=O)[C@H](CCCCN)NC(=O)[C@H](CC(C)C)NC(=O)[C@H](C)NC(=O)[C@@H](NC(=O)[C@H](Cc1c[nH]cn1)NC(=O)[C@H](CC(C)C)NC(=O)[C@@H](NC(=O)[C@@H](NC(=O)[C@H](CCCCN)NC(=O)[C@H](C)NC(=O)[C@H](C)NC(=O)[C@H](CO)NC(=O)[C@H](CCCCN)NC(=O)[C@H](Cc1ccccc1)NC(=O)[C@@H](NC(=O)[C@H](CCCCN)NC(=O)[C@H](CC(C)C)NC(=O)[C@H](Cc1ccccc1)NC(=O)[C@H](CO)NC(=O)[C@H](CCCCN)NC(=O)[C@H](Cc1c[nH]c2ccccc12)NC(=O)[C@H](CCCCN)NC(C)=O)[C@@H](C)O)[C@@H](C)O)C(C)C)[C@@H](C)O)C(=O)N[C@@H](CO)C(=O)N[C@@H](CO)C(N)=O; test system = IPM-R; setting = 87 strains; quantity = MBC90; result = 16 µg/mL (≈ 5.45 µM)
Structure (SMILES) = CN(C)[C@@H]1C(O)=C(C(N)=O)C(=O)[C@@]2(O)C(O)=C3C(=O)c4c(O)cccc4[C@@](C)(O)[C@H]3C[C@@H]12; test system = 19606, biofilm; setting = 3.125 µg/mL, with: HNP1 8 µM; quantity = survival; result = 99.2% and 84.1% and 104% and 100% and 93.1%
Structure (SMILES) = C[C@@H](O)[C@H]1C(=O)N2C(C(=O)O)=C(S[C@@H]3CN[C@H](C(=O)N(C)C)C3)[C@H](C)[C@H]12; test system = ATCC 19606, rat lung infection, lung; setting = 30 mg/kg; quantity = lung bacterial burden; result = 4.3 log10 CFU/g and 4.12 log10 CFU/g

Some of these lines once more:
Structure (SMILES) = NC[C@H]1O[C@H](O[C@H]2[C@H](O)[C@@H](O[C@H]3O[C@H](CO)[C@@H](O)[C@H](N)[C@H]3O)[C@H](N)C[C@@H]2N)[C@H](O)[C@@H](O)[C@@H]1O; test = colony counting; test system = 19606, biofilm; setting = 25 µg/mL, 12 h, without HNP1; quantity = survival; result = 2.2% and 3.46% and 1.93% and 2.25% and 2.83% and 2.56%
Structure (SMILES) = Cn1c(=O)ccc2ccc(F)c(CCNC[C@H]3CN(c4cnc5c(n4)NC(=O)CO5)C(=O)O3)c21; quantity = MIC90; result = 0.5 µg/mL (≈ 1.07 µM)
